Results from different studies.
Each line is one published result; not all experiments were run side by side. ± marks the error that the study gave.

| Compound | assay | system | setting | AUC(0-t) |
| --- | --- | --- | --- | --- |
| CO[C@H]1C[C@@H]2CC[C@@H](C)[C@@](O)(O2)C(=O)C(=O)N2CCCC[C@H]2C(=O)O[C@H]([C@H](C)C[C@@H]2CC[C@@H](O)[C@H](OC)C2)CC(=O)[C@H](C)/C=C(\C)[C@@H](O)[C@@H](OC)C(=O)[C@H](C)C[C@H](C)/C=C/C=C/C=C/1C | – | NOD/SCID mice, male, blood or plasma | intraperitoneal, 0.5 mg/kg every 48 h | 4280 ± 329 ng·h/mL |
| CS(=O)(=O)n1cc2c(n1)CN([C@H]1CO[C@H](c3cc(F)ccc3F)[C@@H](N)C1)C2 | – | male human, plasma | oral, 25 mg, single dose, fasted, healthy volunteers | 20.9 µM·h |
| CNCc1ccc(-c2[nH]c3cc(F)cc4c3c2CCNC4=O)cc1 | – | human patients, plasma | oral, 300 mg once daily, day 1, 24 h, single dose, arithmetic mean | 5740 ng·h/mL |
| CC[C@H](C)[C@@H]1NC(=O)[C@H](Cc2ccc(O)cc2)NC(=O)[C@@H](N)CSSC[C@@H](C(=O)N2CCC[C@H]2C(=O)N[C@@H](CC(C)C)C(=O)NCC(N)=O)NC(=O)[C@H](CC(N)=O)NC(=O)[C@H](CCC(N)=O)NC1=O | microdialysis, radioimmunoassay | C57BL/6J male mice, wild type, hippocampus extracellular fluid | intraperitoneal, 12 µg total, total area from zero | 151 ± 89 pg·30 min/sample |
| CS(=O)(=O)n1cc2c(n1)CN([C@H]1CO[C@H](c3cc(F)ccc3F)[C@@H](N)C1)C2 | – | male human, plasma | oral, 100 mg, single dose, fasted | 94.6 µM·h |
| OCCc1ccc(O)cc1 | – | male C57BL/6J mice, brain | oral, 200 mg/kg, 0 to 12 h, low-fat diet | 1.58 ± 0.16 nmol·min/g |
| CC(C)=CCC[C@](C)(O[C@@H]1O[C@H](CO)[C@@H](O)[C@H](O)[C@H]1O)[C@H]1CC[C@]2(C)[C@@H]1[C@H](O)C[C@@H]1[C@@]3(C)CC[C@H](O[C@@H]4O[C@H](CO)[C@@H](O)[C@H](O)[C@H]4O[C@@H]4O[C@H](CO)[C@@H](O)[C@H](O)[C@H]4O)C(C)(C)[C@@H]3CC[C@]12C | LC-MS/MS | healthy female volunteers, serum | oral, 3 g fermented red ginseng | 153 ± 92.1 ng·h/mL |
| NC(=O)c1cnc2[nH]ccc2c1N[C@@H]1[C@@H]2CC3C[C@H]1C[C@@](O)(C3)C2 | – | healthy Caucasian men, plasma | oral, 200 mg, single dose fasted | 1510 ng·h/mL |
| CCOc1ccc(Cc2cc([C@@H]3S[C@H](CO)[C@@H](O)[C@H](O)[C@H]3O)c(OC)cc2C)cc1 | – | human, plasma | oral, 5 mg, single dose, fasted, healthy volunteers | 1770 ng·h/mL |
| CC(O)CCc1ccc(O)cc1 (centres unmarked) | – | normal-weight male C57BL/6J mice, brain | oral, 200 mg/kg, 0 to 12 h, low-fat diet | 34.8 ± 3.8 nmol·min/g |
| Cc1ccc(NC(=O)c2ccc(CN3CCN(C)CC3)cc2)cc1Nc1nccc(-c2cncc(-c3oncc3C)c2)n1 | – | Parkinson's disease patients, plasma | oral, 50.0 mg once daily, day 7, 7-day dosing, mean | 51100 ng·h/mL |
| OCCc1ccc(O)c(O)c1 | – | female C57BL/6J mice, brain | oral, 200 mg/kg, 0 to 12 h, low-fat diet | 0.014 ± 0.002 nmol·min/g |
| CCCCC1(CCCC)CN(c2ccccc2)c2cc(SC)c(OCC(=O)N[C@@H](C(=O)NCC(=O)O)c3ccccc3)cc2S(=O)(=O)C1 | – | human, plasma | oral, 5 mg, no breakfast | 2.73 ng·h/mL |
| CC(=O)C=Cc1ccc(O)c(O)c1 | – | female C57BL/6J mice, brain | oral, 200 mg/kg, 0 to 12 h, low-fat diet | 0.101 ± 0.027 nmol·min/g |
| CCCC[C@H](NC(C)=O)C(=O)N[C@H]1CCC(=O)NC[C@@H](C(=O)N[C@@H](Cc2c[nH]c3ccccc23)C(N)=O)NC(=O)[C@H](CCCNC(=N)N)NC(=O)[C@@H](Cc2ccccc2)NC(=O)[C@H](Cc2c[nH]cn2)NC1=O | – | CD Sprague-Dawley rat, female, plasma | subcutaneous, 1.0 mg/kg/day, day 1 | 880 ng·h/mL |
| COc1cc(CCC(C)=O)ccc1O | – | male C57BL/6J mice, brain | oral, 200 mg/kg, 0 to 12 h, low-fat diet | 1.98 ± 0.16 nmol·min/g |
| Cn1ncnc1[C@H]1c2n[nH]c(=O)c3cc(F)cc(c23)N[C@@H]1c1ccc(F)cc1 | – | female FVB Abcb1/Abcg2 knockout mice, plasma | oral, 0.5 mg/kg, 4 h | 790 ng·h/mL |
